# Published values of several laboratories.
# “And” joins repeats or separate records; there may be more than shown.
Compound,cell line,test,setting,how to read,measurement,value
CCN(C(=O)c1cc(F)ccc1Oc1nncnc1N1CCC2(C1)CN([C@H](CCCN(C)CCOC)C(C)C)C2)C(C)C,peripheral blood mononuclear cells,,168 h,,GI50,> 10000 nM
CCN(CC)CC(=O)Nc1cccc(-n2cc(-c3ccc4ccc(-c5cn(-c6cccc(NC(=O)CN(CC)CC)c6)nn5)cc4c3)nn2)c1,RCC4,"PCR angiogenesis array, item: VEGFA","5 x IC50, 2 h, normoxia",baseline: untreated,fold regulation,-1.01 fold
O=C(Nc1nnc2c1c(-c1ccc(Cl)cc1)nc1sc(=Cc3ccco3)c(=O)n12)c1ccccc1 (mixture of isomers),OVCAR-4,SRB,"10 µM, NCI60 single-dose screen",baseline: untreated,cell growth,50.3%
CC(C)(C)c1cc(-c2ccc3cc4ccccc4nc3n2)nc(-c2ccc3cc4ccccc4nc3n2)c1.Cc1ccncc1.[Cl-].[Cl-].[Ru+2].c1ccc2cc3nc4c5cccnc5c5ncccc5c4nc3cc2c1,B16-F10,"photocytotoxicity, resazurin","visible light 400-700 nm, 20 mW, 100 J/cm2",,EC50,6.77 µM
CN1CCC(N[C@@H]2CCc3[nH]c4c(C(N)=O)ccc(-c5ccccc5Cl)c4c3C2)CC1,HuCCT-1,cell growth or viability,,,IC50,2.04 nM
CC(=O)NCC(=O)N[C@@H](Cc1ccc(O)cc1)C(=O)NCC(=O)N[C@@H](CO)C(=O)N[C@@H](CO)C(=O)N[C@@H](CO)C(=O)N[C@@H](CCCNC(=N)N)C(=O)N[C@@H](CCCNC(=N)N)C(=O)N[C@@H](C)C(=O)N1CCC[C@H]1C(=O)N[C@@H](CCC(N)=O)C(=O)N[C@H](C(=O)O)[C@@H](C)O,mouse dermal papilla cells,,"100 nM, 48 h",,EdU-positive cells,15.9%
Cn1ncc2cc(-c3cncc(Cl)c3N3CCC4(CCNC4=O)CC3)ccc21,LS174T,"gene expression, microarray, item: DRD2 mRNA","concentration not given, 4 h",baseline: untreated cells,log2 fold change,2.27
CO[C@@H]1[C@@H](OC(N)=O)[C@@H](O)[C@H](Oc2ccc3c(O)c(NC(=O)c4ccc(O)c(CC=C(C)C)c4)c(=O)oc3c2C)OC1(C)C,DLD-1 BRCA2-/-,,"150 µM, replicate A",baseline: untreated,colony survival,0.339%
[BH3-][P+]1(c2ccccc2)CCCCC1,SW-620,trypan blue,"IC50, 72 h",baseline: untreated,reduction of cell number,56 to 60%
Cc1ccncc1.[Cl-].[Cl-].[Ru+2].c1cc(-c2ccc3cccnc3n2)nc(-c2ccc3cccnc3n2)c1.c1ccc2cc3nc4c5cccnc5c5ncccc5c4nc3cc2c1,B16-F10,,light 633 nm,baseline: dark EC50 over light EC50,phototherapeutic index,30
CNS(=O)(=O)Nc1nccc(Cc2c(C)c3ccc(Oc4ncccc4F)cc3oc2=O)c1F,HLF,cell viability,7 days,,IC50,> 1000 nM
CSCC[C@H](N)C(=O)N[C@@H](C)C(=O)N[C@@H](CCCNC(=N)N)C(=O)N[C@@H](CCCNC(=N)N)C(=O)N[C@@H](CC(=O)O)C(=O)N[C@@H](CCCCN)C(=O)N[C@H](C(=O)N[C@@H](CC(=O)O)C(=O)N[C@@H](Cc1ccccc1)C(=O)N[C@@H](C)C(=O)N[C@@H](CCCNC(=N)N)C(=O)N[C@@H](CCCNC(=N)N)C(=O)N[C@@H](CCCNC(=N)N)C(=O)N[C@@H](CCCNC(=N)N)C(=O)NCCCCCC(=O)NCCCCC(NC(=O)CCCCCNC(=O)[C@H](CCCNC(=N)N)NC(=O)[C@H](CCCNC(=N)N)NC(=O)[C@H](CCCNC(=N)N)NC(=O)[C@H](CCCNC(=N)N)NC(=O)[C@H](C)NC(=O)[C@H](Cc1ccccc1)NC(=O)[C@H](CC(=O)O)NC(=O)[C@@H](NC(=O)[C@H](CCCCN)NC(=O)[C@H](CC(=O)O)NC(=O)[C@H](CCCNC(=N)N)NC(=O)[C@H](CCCNC(=N)N)NC(=O)[C@H](C)NC(=O)[C@@H](N)CCSC)[C@@H](C)O)C(=O)NCCCCC(NC(=O)C(CCCCNC(=O)CCCCCNC(=O)[C@H](CCCNC(=N)N)NC(=O)[C@H](CCCNC(=N)N)NC(=O)[C@H](CCCNC(=N)N)NC(=O)[C@H](CCCNC(=N)N)NC(=O)[C@H](C)NC(=O)[C@H](Cc1ccccc1)NC(=O)[C@H](CC(=O)O)NC(=O)[C@@H](NC(=O)[C@H](CCCCN)NC(=O)[C@H](CC(=O)O)NC(=O)[C@H](CCCNC(=N)N)NC(=O)[C@H](CCCNC(=N)N)NC(=O)[C@H](C)NC(=O)[C@@H](N)CCSC)[C@@H](C)O)NC(=O)CCCCCNC(=O)[C@H](CCCNC(=N)N)NC(=O)[C@H](CCCNC(=N)N)NC(=O)[C@H](CCCNC(=N)N)NC(=O)[C@H](CCCNC(=N)N)NC(=O)[C@H](C)NC(=O)[C@H](Cc1ccccc1)NC(=O)[C@H](CC(=O)O)NC(=O)[C@@H](NC(=O)[C@H](CCCCN)NC(=O)[C@H](CC(=O)O)NC(=O)[C@H](CCCNC(=N)N)NC(=O)[C@H](CCCNC(=N)N)NC(=O)[C@H](C)NC(=O)[C@@H](N)CCSC)[C@@H](C)O)C(N)=O)[C@@H](C)O (some centres unmarked),mouse C57BL/6 BMMs,,"1.0 µM, 3 days, together with: RANKL",baseline: untreated control,osteoclast formation,25%
CC(C)Cc1ccc(C(C)C(=O)[Se]CC(=O)Nc2cccc(C(F)(F)F)c2)cc1 (centres unmarked),NCI60 breast subpanel,NCI60 five-dose screen,,,GI50,1880 nM
COCCCCCNc1nc(NCCCCCCN(C)C)c2cc(NC(=O)/C=C/CN(C)C)ccc2n1,MCF7,CellTiter-Glo,"50 µM, 72 h, unit not given",baseline: DMSO-treated cells,viability,0.908 and 0.886 and 0.838
O=C(C[Se]C(=O)c1cc2ccccc2s1)Nc1cccc(C(F)(F)F)c1,NCI60 breast subpanel,NCI60 five-dose screen,,,GI50,1790 nM
Cc1ncsc1-c1ccc(C(C)NC(=O)C2CC(O)CN2C(=O)C(NC(=O)CCCCCCCCCCN2CCCC(Nc3ncc(Cl)c(Nc4ccccc4S(=O)(=O)C(C)C)n3)C2)C(C)(C)C)cc1 (centres unmarked),22Rv1,"RNA-seq, item: RDH10 mRNA",concentration not given,baseline: DMSO,log2 fold change,-1.24
CN1CCCNC(=O)c2cccc(c2)C(=O)NCCCN(C)CCCNc2cccc3c2C(=O)c2cccc(c2C3=O)NCCC1,SAS,"RNA-Seq, item: DNAJB11 mRNA","1 µM, 6 h",baseline: untreated cells,log2 fold change,-0.912
Cc1cc(=O)oc2cc(OCCCCCCSC#N)ccc12,T47D,"cell growth or viability, SRB",,,GI50,3600 nM
Cc1cc(Cl)cc(-c2ccnc3cc(CN4C(=O)C5C(C4=O)C5(C)C)sc23)c1C[C@@H]1CNCCO1 (some centres unmarked),CHP-212 resistant,PI flow cytometry,"0.1 µM, 24 h",,G2/M phase cells,13.6%
CC(C)(C)c1cc(-c2ccc3cccnc3n2)nc(-c2ccc3cccnc3n2)c1.COc1ccncc1.[Cl-].[Cl-].[Ru+2].c1ccc2cc3nc4c5cccnc5c5ncccc5c4nc3cc2c1,B16-F10,,visible light 100 J/cm2,baseline: dark EC50 over light EC50,phototherapeutic index,107
CC(C)c1ccc(N(C)c2ccc3c(c2)OCC[C@H]3CNc2cnccc2C(=O)O)cc1,SUP-T1,"cell viability, CellTiter-Glo",7 days,,IC50,3330 nM
Nc1ccc[n+]([Pt-2]([Cl])([Cl])[n+]2cccc(N)c2Cl)c1Cl,BEAS-2B,"cell viability, MTT",24 h,,IC25,18.5 µM
CCC(=CCc1c(O)cc2c(c1O)C(=O)CC(c1ccc(O)cc1)O2)CC (centres unmarked),HeLa,"cell growth or viability, MTT","1.563 µM, 48 h",,inhibition,2.66%
